Published values pooled from the literature.
Protocols differ between the studies behind these lines. ± gives the spread as reported. Values after ≈ are worked out from the molar mass of the structure shown.

SMILES	assay	system	setting	how to read	endpoint	value
O=C(Nc1cnccc1Cl)N1CCN(Cc2ccc3c(c2)OC(F)(F)O3)CC1	item: Haematoma	human healthy young men	25 mg, multiple dose		adverse event incidence	0%
C[C@@H](N)C1CCN(S(=O)(=O)c2cccc3cnccc23)CC1	item: Rash	healthy volunteers	150 mg, fed		TEAE incidence	0%
O=C(N[C@H](Cc1c[nH]c2ccccc12)C(=O)Nc1ccncc1)c1ccc(-c2ccc(F)c(C(F)(F)F)c2)cc1F		Swiss Webster mouse, female, intestine	oral, 50 mg/kg, 2 h, 20% HPβCD vehicle		concentration	108 µM
Cn1cc(Nc2nccc(-c3ccc4c(c3)CN(C3COC3)CC[C@H]4NC(=O)c3cn(C(C)(C)C)nn3)n2)cn1		human, whole blood	50 mg twice daily, day 7	baseline: pre-dose baseline	class-switched memory B cell change	97%
CC#CC(=O)N1CCC[C@H]1c1nc(-c2ccc(C(=O)Nc3ccccn3)cc2)c2c(N)nccn12	population pharmacokinetics	patients			apparent clearance (CL/F)	134 L/h
CC(C)NCCCC[C@@H]1NC(=O)[C@H](Cc2ccc(O)cc2)NC(=O)[C@H](Cc2ccccc2)NC(=O)CC[C@H](C(=O)N[C@@H](CCCCNC(C)C)C(=O)N[C@@H](CCCCNC(=O)[C@H](CCC(=O)O)NC(=O)[C@H](CCC(=O)O)NC(=O)[C@H](CCC(=O)O)NC(=O)CN2CCN(CC(=O)O)CCN(CC(=O)O)CCN(CC(=O)O)CC2)C(N)=O)NC(=O)CNC(=O)[C@H](Cc2ccc3ccccc3c2)NC(=O)[C@@H](CCCNC(=N)N)NC1=O [gallium-68 labelled]		mouse with JeKo-1 xenograft, bone	intravenous, 1 h		tissue uptake	0.31 %ID/g
c1csc(CNc2cc[nH]n2)c1	DNA damage, alkaline comet	Hsd:ICR(CD-1) mice, male, liver	oral gavage, 125 mg/kg/day, 3 days		tail DNA (mean)	1.8%
CCOc1c([C@H](C)n2nc(C)c3c(N)ncnc32)cc(Cl)c(F)c1[C@@H]1CNC(=O)C1	item: ΔQTcF > 60 ms	previously treated B-cell malignancy	oral, dose not given, baseline QTcF ≤450 ms, all doses		share of ECG observations	0.6%
COc1ccc2[nH]c([S+]([O-])Cc3ncc(C)c(OC)c3C)nc2c1 (stereo not drawn)		healthy Chinese volunteers CYP2C19 PM, plasma	oral, 20 mg single dose, enteric-coated capsules		AUC(0-t)	3430 ± 1500 ng·h/mL
CNCc1ccc(-c2[nH]c3cc(F)cc4c3c2CCNC4=O)cc1		human patients	oral, 240 mg twice daily, all grades		dyspnoea incidence	0%
CC=CC1CCC(C2CCC(CCC)CC2)CC1 (stereo not drawn)		rat, fetus	1000 ng/mL in perfusate, middle dose, mixture of 21 LCMs		median fetal accumulation	0.711 ng/g
CO[C@@H]1[C@H](O)[C@@H](CO)O[C@H]1n1c([N+](=O)[O-])nc2c(=O)[nH]c(N)nc21	depurination, RP-HPLC	citrate-phosphate buffer 0.5 mM	3960 min, pH 7, 37 °C		nucleoside remaining fraction	0.512
CCc1ccc(-c2ccc(-c3cc(F)c(F)c(F)c3)c(F)c2)cc1		rat, placenta	5000 ng/mL in perfusate, high dose, mixture of 21 LCMs		median placental accumulation	229 ng/g
O=[N+]([O-])c1ccc(-c2ccc(O)cc2)c2cccnc12		ICR mouse, male, plasma	oral, 5 mg/kg		AUC(0-t)/AUC(0-inf) ratio	0.87
Cc1ccc([C@@H]2O[C@H](CO)[C@@H](O)[C@H](O)[C@H]2O)cc1Cc1ccc(-c2ccc(F)cc2)s1		human, maintenance hemodialysis patients	oral, 100 mg once daily, steady state, mean		clearance	12.3 L/h
NC1(C(=O)N[C@@H](CCO)c2ccc(Cl)cc2)CCN(c2nc[nH]c3nccc2-3)CC1		metastatic CRPC patients	320 mg b.i.d., any grade, treatment-related, together with: enzalutamide 160 mg daily		incidence of Hyper-glycaemia	66.7%
Cc1ccc([C@@H]2O[C@H](CO)[C@@H](O)[C@H](O)[C@H]2O)cc1Cc1ccc(-c2ccc(F)cc2)s1		Japanese type 2 diabetes patients	200 mg, day 17, 24 h urine collection	baseline: baseline	urinary chloride excretion change	-20.2 mEq
Cl.[2H]C([2H])([2H])CC(=O)c1cnc(NC(=O)C2CC2)cc1Nc1cccc(-c2ncn(C([2H])([2H])[2H])n2)c1OC	geometric mean	human	oral, 25 mg single dose, fasted, liquid		Vz/F	134 L
N#CC1CCN(c2nc(-c3ccccn3)nc3ccccc23)C1 (stereo not drawn)		Japanese Pharmacopoeia disintegration test solution 2	pH 6.8		kinetic solubility	0.036 mg/mL
C=CCN1CC(=O)N2[C@@H](Cc3ccc(O)cc3F)C(=O)N(Cc3cccc(N4CC(N5CCN(CC)CC5)C4)n3)C[C@@H]2N1C(=O)NCc1ccccc1		advanced solid tumour patients	oral, 45 mg twice daily, grade ≥3, dose-escalation		treatment-related diarrhoea	0%
Cc1ccc(Sc2ccccc2N2CCNCC2)c(C)c1	item: Diarrhea	healthy adult women	oral, 10 mg daily, 12 days		participants with TEAE	0%

SMILES	assay	system	setting	how to read	endpoint	value
Cn1nc([N+](=O)[O-])nc1Oc1ccccc1C(=O)N1CCOCC1		aqueous buffer	pH 7.4		thermodynamic solubility	4.93 mM (≈ 1640 µg/mL)
CN(C(=O)n1cnc(-c2ccc[n+]([O-])c2)c1)[C@H]1CC[C@H](O)CC1		Wistar rat, medulla oblongata	oral, 10 mg/kg of BIA 10-2474, 1 h, single dose		concentration	11.9 ± 5.9 ng/g
CN1C(=O)[C@@H](NC(=O)c2nnc(Cc3ccccc3)[nH]2)COc2cccnc21	phase I single ascending dose	human, male and female	oral, 400 mg, fasted		medical device site reaction incidence	0%
COc1cccc(OC)c1-c1cc(C(=O)NC2(C(=O)O)C3CC4CC(C3)CC2C4)nn1-c1ccc(C(=O)N(C)CCCN(C)CCCN(C)C(=O)CN2CCN(CC(=O)[O-])CCN(CC(=O)[O-])CCN(CC(=O)[O-])CC2)cc1C(C)C.[177Lu+3] (stereo not drawn)		mouse, HT-29 xenograft	24 h post injection, biodistribution	baseline: tumour over muscle uptake	tumour-to-muscle ratio	216
COc1cc2[nH]c(C)c(-c3ccccc3CO)c(=O)c2cc1Cl			pH 7.4		kinetic solubility	12 to 20 µM
Cc1ccc(O)c(-n2nc3ccccc3n2)c1		human aged 6-11 years	concentration not given, spray sunscreen, mean		daily dermal exposure dose	923 ng/kg/day
CC(C)=CCC/C(C)=C/C(=O)O.Cc1cc(/C=C/C#N)cc(C)c1Nc1ccnc(Nc2ccc(C#N)cc2)n1		Capmul MCM C8			kinetic solubility	~50 mg/mL
[18F]c1ccc(-c2ccc3c(c2)[nH]c2ccncc23)cn1	ex vivo biodistribution	B6SJL mouse, normal, urine	intravenous, 30 min		uptake	6.79 ± 2.13 SUV
CCN1/C(=C/C(C)=O)Sc2ccc(F)cc21		cynomolgus monkey	oral, 30 mg/kg, 6 h post-dose		QRS duration	36 ± 1 ms
COc1ccc2c(c1)CN(C(=O)CCN1CCC(Cc3ccccc3)CC1)CC[S@@+]2[O-]	telemetry	conscious male beagle dogs	intravenous, 8 mg/kg, 24 h		QT interval	213 ± 28 ms
CN1CCN(c2cccc3c2CCN(C(=O)/C=C/c2c(-n4cnnn4)ccc(Cl)c2F)[C@@H]3C(=O)Nc2ccc(C(=O)O)cc2)C(=O)C1		healthy human subjects	intravenous infusion, 3 mg/h, 5 days		subjects with skin irritation	0%
C/C(=N\c1ccc(O)cc1)c1cc2ccccc2n1C		rat plasma	1.5 ng/mL, 15 days, -80 °C	baseline: nominal concentration	remaining compound	106 ± 9.3%
N#CCNC(=O)c1ccc(-c2ccnc(Nc3ccc(N4CCOCC4)cc3)n2)cc1		healthy volunteers, plasma	oral, dose not given, together with: rifampin multiple-dose	baseline: with single-dose rifampin	AUCinf decrease	46%
Cc1cc(-c2nccc3c2ccn3CC(=O)Nc2ccc(-c3cnccn3)cn2)ccn1		human	15 mg once daily, multiple ascending dose		subjects with any TEAE	88.9%
Cc1cccc(CNC(=O)c2cn(CCNC(=O)c3ccccc3S)c3cc4c(cc3c2=O)OC(F)(F)O4)n1		Sprague-Dawley rat, male, plasma	intravenous, 5 mg/kg of parent drug		AUC(0-inf)	105 ± 7.56 ng·h/mL
O=C(OC(C(F)(F)F)C(F)(F)F)N1CCN(Cc2cccc(Oc3ccccc3)c2)CC1	PET blocking study	rhesus monkey, brain OCC	0.03 mg/kg, compound pretreatment, together with: [18F]T-401 tracer		k2	0.031 min⁻¹
O=C(Nc1nc2cccc(-c3ccc(CN4CCS(=O)(=O)CC4)cc3)n2n1)C1CC1	item: non-infective cystitis	rheumatoid arthritis patients	oral, 75 mg once daily, 4 weeks, any relatedness		treatment-emergent adverse events	0%
O=C(Nc1ccc(OC(F)(F)Cl)cc1)c1cnc(N2CC[C@@H](O)C2)c(-c2ccn[nH]2)c1	per laboratory record, item: bilirubin increase	human patients	oral, dose not given		grade ≥2 event rate	0.3%
N#Cc1ccc2c(c1)[C@H]1CCCN(C(=O)c3ccc4[nH]cnc4c3)[C@H]1C2		human males	40 mg, end of trial		total testosterone level	16.8 nmol/L
Cc1nc2cccc(OCC(C)(C)C(=O)NC(C)C)c2c(N)c1C(=O)O		female Sprague-Dawley rat, plasma	dietary, 30 mg/kg/day	baseline: day 90 over day 7	Cmax ratio	4.18
FC(F)(F)c1ccc(CNc2ccc(Cc3c[nH]c4ncc(Cl)cc34)cn2)cn1	item: Vomiting	patients with advanced solid tumours, non-TGCT cohort	oral, 1000 mg/day, any grade		treatment-related adverse events	19%

For quick reference, copied from above:
SMILES	assay	system	setting	how to read	endpoint	value
CC#CC(=O)N1CCC[C@H]1c1nc(-c2ccc(C(=O)Nc3ccccn3)cc2)c2c(N)nccn12	population pharmacokinetics	patients			apparent clearance (CL/F)	134 L/h
CC(C)NCCCC[C@@H]1NC(=O)[C@H](Cc2ccc(O)cc2)NC(=O)[C@H](Cc2ccccc2)NC(=O)CC[C@H](C(=O)N[C@@H](CCCCNC(C)C)C(=O)N[C@@H](CCCCNC(=O)[C@H](CCC(=O)O)NC(=O)[C@H](CCC(=O)O)NC(=O)[C@H](CCC(=O)O)NC(=O)CN2CCN(CC(=O)O)CCN(CC(=O)O)CCN(CC(=O)O)CC2)C(N)=O)NC(=O)CNC(=O)[C@H](Cc2ccc3ccccc3c2)NC(=O)[C@@H](CCCNC(=N)N)NC1=O [gallium-68 labelled]		mouse with JeKo-1 xenograft, bone	intravenous, 1 h		tissue uptake	0.31 %ID/g
c1csc(CNc2cc[nH]n2)c1	DNA damage, alkaline comet	Hsd:ICR(CD-1) mice, male, liver	oral gavage, 125 mg/kg/day, 3 days		tail DNA (mean)	1.8%
CCOc1c([C@H](C)n2nc(C)c3c(N)ncnc32)cc(Cl)c(F)c1[C@@H]1CNC(=O)C1	item: ΔQTcF > 60 ms	previously treated B-cell malignancy	oral, dose not given, baseline QTcF ≤450 ms, all doses		share of ECG observations	0.6%
